Measured values of several laboratories.
Values joined by “and” are separate records of one study, mostly repeats; a detail may differ. Numbers after ± are the reported error.

SMILES	cell line	assay	setting	how to read	measurement	value
CNS(=O)(=O)Nc1nccc(Cc2c(C)c3ccc(Oc4ncccc4F)cc3oc2=O)c1F	MKN-7	cell viability	7 days		IC50	53.1 nM
COC(=O)c1cc(NC2=NC(=O)C(=Cc3ccc(C)cc3)S2)ccc1OC(C)=O	MCF7	GC-MS, item: L-Cysteine	1 µM	baseline: DMSO	metabolite level	-0.46 fold change
Cn1ncc2cc(-c3cncc(Cl)c3N3CCC4(CCNC4=O)CC3)ccc21	LS174T	microarray, item: MT1E	concentration not given, 24 h, gene set Metallothionein-1E	baseline: untreated cells	fold change in expression	-3.39
COC(=O)c1cc(NC2=NC(=O)C(=Cc3ccc(N(C)C)cc3)S2)ccc1OC(C)=O	MCF7	GC-MS, item: Decanoic acid	1 µM	baseline: DMSO	metabolite level	-1.07 fold change
Cc1cc(Cl)cc(-c2ccnc3cc(CN4C(=O)C5C(C4=O)C5(C)C)sc23)c1C[C@@H]1CNCCO1 (stereo partly shown)	CHP-212 parental	annexin V/PI flow cytometry	0.1 µM, 48 h		apoptotic cells	17.4%
C=CC(=O)N1[C@@H](c2ccc3c(c2)OCO3)c2[nH]c3ccccc3c2C[C@H]1C(=O)NC1CC1	rat DRG neurons		0.3704 µM, 48 h, together with: vincristine 40 nM		mean neuron degeneration	78.4%
CN1CCCNC(=O)c2cccc(c2)C(=O)NCCCN(C)CCCNc2cccc3c2C(=O)c2cccc(c2C3=O)NCCC1	SAS	RNA-Seq, item: SLC10A3 mRNA	1 µM, 6 h	baseline: untreated cells	log2 fold change	-0.495
CCCCCCc1cccc(C(O)CC(CO)NC(=O)CCCCCCCCCCNC(C)=O)c1 (stereo not shown)	HeLa	CERT activity, HPLC-MS/MS lipidomics, item: ceramide 24:1	1 µM, 24 h, not cell-number normalised		ceramide level	18700 pmol/sample and 20800 pmol/sample and 18900 pmol/sample
CNC(NN=Cc1ccc([N+](=O)[O-])o1)=[S+][Au-][Cl]	CAKI-1	annexin V/PI flow cytometry	10 µM, 72 h		cell fraction ANV+/PI−	17.4 ± 1.9%
CC(C)c1ccc(N(C)c2ccc3c(c2)OCC[C@H]3CNc2cnccc2C(=O)O)cc1	KYSE-150	cell growth or viability, MTS	7 days		IC50	5.3 nM
CC(C)C[C@H](NC(=O)[C@@H]1CCCN1C(=O)[C@H](CCCCN)NC(=O)[C@@H](N)CO)C(=O)N1CCC[C@H]1C(=O)N[C@@H](CCC(=O)O)C(=O)N[C@H](C(=O)N[C@H](C(=O)N[C@@H](CC(=O)O)C(=O)N[C@@H](CCC(=O)O)C(=O)N[C@@H](Cc1ccc(O)cc1)C(=O)NCC(=O)NCCOCCOCCOCCOCCOCCOCCOCCOCCOCCOCCOCCOCCOCCOCCOCCOCCOCCOCCOCCOCCOCCOCCOCCOCCC(=O)N[C@@H](CCCCNC(=O)CC[C@H](C(=O)O)N1CCN(CC(=O)O)CCN(CC(=O)O)CC1)C(=O)N1CCN(CCCN(C)c2ccc3nccc(C(=O)NCC(=O)N4CC(F)(F)C[C@H]4C#N)c3c2)CC1)[C@@H](C)O)C(C)C	HT-1080 expressing hFAP	binding, flow cytometry	200 nM		positive cells	95.7%
C=CC(=O)Oc1ccc(OC)c(-c2c[nH]c3ncc(-c4cncc(C(=O)N(C)C)c4)cc23)c1	non-BCR-ABL leukaemia cells		concentration not given		cytotoxicity	not toxic
C1=[N+]2CCCC[N+]3=Cc4ccc5[n]4[Au-]23[n]2c1ccc2-c1nc2ccccc2nc1-5.F[P-](F)(F)(F)(F)F	M14	NCI60 five-dose screen			TGI	4 -log M
COc1cc(N2CCN(C(=O)C3CCCN3)CC2)ccc1Nc1ncc(Cl)c(Nc2ccccc2P(C)(C)=O)n1 (stereo not shown)	Ba/F3 EML4-ALK	flow cytometry	concentration not given, 1 h		early apoptotic cells	3.52% and 3.23% and 3.64%
CCCCCCCCN(CCC(=O)Nc1ccccc1)C(=O)c1cccn1C	progeroid mouse fibroblasts, Lmna G609G/G609G	MTT	2 µM, 72 h	baseline: vehicle-treated wild type	viability	74 ± 9%
O=C(N1CCCC1)n1cc(-c2ccc(-c3ccccc3)cc2)nn1	mouse T cells	N-terminal labelling proteomics, item: S100A4 N-terminal peptides	0.001 µM, 6 h	baseline: DMSO	SILAC ratio	1.05

SMILES	cell line	assay	setting	how to read	measurement	value
CCCCCCCCCCCCCCCC(=O)OCC(CSC[C@H](N)C(=O)N[C@@H](CO)C(=O)N[C@@H](CCCCN)C(=O)N[C@@H](CCCCN)C(=O)N[C@@H](CCCCN)C(=O)N[C@@H](CCCCN)C(=O)NCCCCCC(=O)N[C@@H](CCCCN)C(=O)N[C@@H](CC(C)C)C(=O)N[C@H](C(=O)N[C@@H](Cc1ccccc1)C(=O)N[C@@H](Cc1ccccc1)C(=O)N[C@@H](Cc1ccc2ccccc2c1)C(=O)O)C(C)C)OC(=O)CCCCCCCCCCCCCCC (stereo partly shown)	BV-2	Western blot, item: MARCO	concentration not given	baseline: control	relative protein level	3.11
CO[C@@H]1[C@@H](OC(N)=O)[C@@H](O)[C@H](Oc2ccc3c(O)c(NC(=O)c4ccc(O)c(CC=C(C)C)c4)c(=O)oc3c2C)OC1(C)C	DLD-1 BRCA2-/-		200 µM, replicate 1		colony count	0.1
O=C(Nc1ccc(Sc2ccc3c(/C=C/c4ccccn4)n[nH]c3c2)cc1)Nc1ccc(F)c(F)c1	Ba/F3 TEL-VEGFR2	cell growth, CCK-8			GI50	380 nM
COCCCCCNc1nc(NCCCCCCN(C)C)c2cc(NC(=O)/C=C/CN(C)C)ccc2n1	MCF7	CellTiter-Glo	3.125 µM, 72 h, unit not given	baseline: DMSO-treated cells	viability	0.868 and 1.01 and 1.03
CN(C)c1ccc(-n2cc(COC(=O)[C@@]3(C)C=C(C(=O)OC(C)(C)C)C(=O)CC3)nn2)cc1	HeLa	quantitative western blot	concentration not given, 20 (unit not given), together with: EGF		pRSK/tubulin ratio	0.142
CCN(C(=O)c1cc(F)ccc1Oc1nncnc1N1CCC2(C1)CN([C@H](CCCN(C)CCOC)C(C)C)C2)C(C)C	PANC-1	cell growth or viability	7 days		GI50	> 10000 nM
O=C(Nc1nncs1)c1cccc([C@@H]2C[C@H]2NC2CCC2)c1	SET-2	cell growth, CellTiter-Glo	0.1 µM, 7 d	baseline: vehicle	relative growth	71.6% and 70.3% and 78.5%
C=CC(=O)N1CC2C(=O)N(CCN(C)C)c3c(c4cc(Cl)c(-c5c(O)cccc5F)nc4n(-c4c(C)ccnc4C(C)C)c3=O)N2CC1C (stereo not shown)	non-KRAS G12C-mutant cell lines		concentration not given		cell growth	no effect
O=C(Nc1cccc(Sc2ccc3c(/C=C/c4ccccn4)n[nH]c3c2)c1)c1ccco1	Ba/F3 TEL-VEGFR2	cell growth, CCK-8			GI50	500 nM
COc1cc(C(=O)N2CC[C@@H](O)[C@@H](N)C2)cc2nc(-c3cc4cccnc4n3CC3CC3)n(C)c12	human neutrophils	protein citrullination, inhibitor, flow cytometry, item: citrullinated histone H3	10 nM, together with: ionomycin		inhibition	10.4% and 24.3% and 4.63% and 14.4%
COc1ccccc1-c1ccncc1C(=O)Nc1nnc(OCc2ccc(Cl)cc2)s1	MDA-MB-436		1.5 µM		colony count	13.5 and 9.5 and 12.5
CCN(CC)CC(=O)Nc1cccc(-n2cc(-c3ccc4ccc(-c5cn(-c6cccc(NC(=O)CN(CC)CC)c6)nn5)cc4c3)nn2)c1	RCC4	PCR angiogenesis array, item: VEGFB	5 x IC50, 4 h, normoxia	baseline: untreated	fold regulation	1.02 fold
Fc1ccc(Nc2nc(NC3CCCCC3)c3cc(Br)ccc3n2)cc1F	transfected HEK293 cells	β-arrestin2 recruitment, negative allosteric modulator, BRET	30 min pre-incubation, β1AR ECL1/2 chimera, together with: isoproterenol 1 µM		pIC50	6.5
CCOc1cncc(-c2ccc(NC(=O)C3(c4ccnc(NS(=O)(=O)C5CC5)n4)CCOCC3)nc2)n1	DND-39	cell proliferation, CellTiter-Glo	72 h, lymphoid haematological cancer		IC50	84 nM
Cc1ncsc1-c1ccc(C(C)NC(=O)C2CC(O)CN2C(=O)C(NC(=O)CCCCCCCCCCN2CCCC(Nc3ncc(Cl)c(Nc4ccccc4S(=O)(=O)C(C)C)n3)C2)C(C)(C)C)cc1 (stereo not shown)	22Rv1	RNA-seq, item: NSRP1 mRNA	concentration not given	baseline: DMSO	log2 fold change	-1.06

For quick reference, copied from above:
SMILES	cell line	assay	setting	how to read	measurement	value
C=CC(=O)N1[C@@H](c2ccc3c(c2)OCO3)c2[nH]c3ccccc3c2C[C@H]1C(=O)NC1CC1	rat DRG neurons		0.3704 µM, 48 h, together with: vincristine 40 nM		mean neuron degeneration	78.4%
CN1CCCNC(=O)c2cccc(c2)C(=O)NCCCN(C)CCCNc2cccc3c2C(=O)c2cccc(c2C3=O)NCCC1	SAS	RNA-Seq, item: SLC10A3 mRNA	1 µM, 6 h	baseline: untreated cells	log2 fold change	-0.495
CCCCCCc1cccc(C(O)CC(CO)NC(=O)CCCCCCCCCCNC(C)=O)c1 (stereo not shown)	HeLa	CERT activity, HPLC-MS/MS lipidomics, item: ceramide 24:1	1 µM, 24 h, not cell-number normalised		ceramide level	18700 pmol/sample and 20800 pmol/sample and 18900 pmol/sample
CNC(NN=Cc1ccc([N+](=O)[O-])o1)=[S+][Au-][Cl]	CAKI-1	annexin V/PI flow cytometry	10 µM, 72 h		cell fraction ANV+/PI−	17.4 ± 1.9%
CC(C)c1ccc(N(C)c2ccc3c(c2)OCC[C@H]3CNc2cnccc2C(=O)O)cc1	KYSE-150	cell growth or viability, MTS	7 days		IC50	5.3 nM
